# Published values collected from several papers.
# Each numbered part is a random draw from the data of one study; scales do not carry over between parts. Values joined by “and” are separate records of one study, mostly repeats; a detail may differ.
# Chain of UniProt P50613 (whole entry, looked up): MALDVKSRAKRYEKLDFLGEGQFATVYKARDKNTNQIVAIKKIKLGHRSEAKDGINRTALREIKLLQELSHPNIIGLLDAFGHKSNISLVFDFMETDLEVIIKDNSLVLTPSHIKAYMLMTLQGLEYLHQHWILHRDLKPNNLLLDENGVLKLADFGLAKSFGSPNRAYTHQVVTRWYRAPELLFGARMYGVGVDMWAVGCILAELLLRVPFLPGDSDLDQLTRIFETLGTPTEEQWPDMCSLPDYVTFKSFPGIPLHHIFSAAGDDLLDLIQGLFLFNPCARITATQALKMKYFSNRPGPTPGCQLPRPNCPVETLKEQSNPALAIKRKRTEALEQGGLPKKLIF
# Chain of UniProt Q05397 (whole entry, looked up): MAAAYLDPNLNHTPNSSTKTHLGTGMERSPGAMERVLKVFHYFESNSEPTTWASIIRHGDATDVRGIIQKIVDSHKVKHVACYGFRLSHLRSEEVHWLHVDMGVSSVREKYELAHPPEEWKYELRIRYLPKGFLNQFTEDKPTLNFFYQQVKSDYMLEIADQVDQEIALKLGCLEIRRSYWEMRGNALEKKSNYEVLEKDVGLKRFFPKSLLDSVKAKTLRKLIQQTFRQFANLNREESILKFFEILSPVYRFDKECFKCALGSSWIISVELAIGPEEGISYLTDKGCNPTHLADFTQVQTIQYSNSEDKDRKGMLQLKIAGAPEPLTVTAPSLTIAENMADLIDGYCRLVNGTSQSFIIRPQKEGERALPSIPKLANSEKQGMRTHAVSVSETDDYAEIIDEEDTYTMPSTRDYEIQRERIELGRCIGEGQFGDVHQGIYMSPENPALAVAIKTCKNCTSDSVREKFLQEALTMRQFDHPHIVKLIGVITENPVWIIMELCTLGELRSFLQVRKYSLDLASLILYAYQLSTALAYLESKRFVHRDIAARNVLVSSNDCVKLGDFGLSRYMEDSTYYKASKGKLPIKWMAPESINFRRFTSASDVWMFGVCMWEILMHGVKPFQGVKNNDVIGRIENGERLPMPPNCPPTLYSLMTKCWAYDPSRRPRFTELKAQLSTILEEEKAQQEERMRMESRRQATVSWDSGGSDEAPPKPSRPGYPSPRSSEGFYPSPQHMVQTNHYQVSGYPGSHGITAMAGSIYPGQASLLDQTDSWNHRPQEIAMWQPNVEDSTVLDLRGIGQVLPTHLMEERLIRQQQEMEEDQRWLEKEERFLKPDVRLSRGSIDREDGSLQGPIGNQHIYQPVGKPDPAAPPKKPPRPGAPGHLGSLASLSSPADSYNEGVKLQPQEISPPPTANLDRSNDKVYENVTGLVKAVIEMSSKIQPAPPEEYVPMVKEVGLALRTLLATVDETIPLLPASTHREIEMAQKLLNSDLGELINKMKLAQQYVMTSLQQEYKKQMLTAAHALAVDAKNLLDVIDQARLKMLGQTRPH
# Chain of UniProt Q9UIK4 (whole entry, looked up): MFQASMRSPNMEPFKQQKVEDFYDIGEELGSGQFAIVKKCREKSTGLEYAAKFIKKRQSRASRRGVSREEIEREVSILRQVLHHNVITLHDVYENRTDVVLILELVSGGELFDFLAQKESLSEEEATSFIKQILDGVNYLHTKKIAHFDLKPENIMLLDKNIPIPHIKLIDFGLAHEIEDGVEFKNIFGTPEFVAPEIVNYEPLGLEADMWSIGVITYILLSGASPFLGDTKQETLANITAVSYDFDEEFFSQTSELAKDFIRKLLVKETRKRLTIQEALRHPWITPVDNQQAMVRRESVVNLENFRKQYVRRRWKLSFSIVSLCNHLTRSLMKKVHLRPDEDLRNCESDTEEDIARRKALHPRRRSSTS
# Chain of UniProt O43318 (whole entry, looked up): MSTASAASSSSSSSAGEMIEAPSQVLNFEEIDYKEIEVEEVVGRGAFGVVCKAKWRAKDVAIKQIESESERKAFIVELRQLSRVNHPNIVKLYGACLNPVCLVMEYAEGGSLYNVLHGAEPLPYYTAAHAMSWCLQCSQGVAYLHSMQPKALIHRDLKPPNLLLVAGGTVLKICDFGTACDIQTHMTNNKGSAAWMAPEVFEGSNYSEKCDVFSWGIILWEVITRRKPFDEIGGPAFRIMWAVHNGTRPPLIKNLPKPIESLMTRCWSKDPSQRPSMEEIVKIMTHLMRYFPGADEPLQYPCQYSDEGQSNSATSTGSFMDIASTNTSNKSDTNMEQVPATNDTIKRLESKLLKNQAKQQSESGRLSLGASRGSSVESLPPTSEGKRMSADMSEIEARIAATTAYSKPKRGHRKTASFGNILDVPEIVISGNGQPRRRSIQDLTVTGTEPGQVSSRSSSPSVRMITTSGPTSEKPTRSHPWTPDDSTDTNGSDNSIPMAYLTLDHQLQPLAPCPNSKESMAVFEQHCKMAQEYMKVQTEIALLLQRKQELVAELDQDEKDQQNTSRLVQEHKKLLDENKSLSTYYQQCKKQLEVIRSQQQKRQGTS
# Chain of UniProt P42336 (whole entry, unmodified, looked up): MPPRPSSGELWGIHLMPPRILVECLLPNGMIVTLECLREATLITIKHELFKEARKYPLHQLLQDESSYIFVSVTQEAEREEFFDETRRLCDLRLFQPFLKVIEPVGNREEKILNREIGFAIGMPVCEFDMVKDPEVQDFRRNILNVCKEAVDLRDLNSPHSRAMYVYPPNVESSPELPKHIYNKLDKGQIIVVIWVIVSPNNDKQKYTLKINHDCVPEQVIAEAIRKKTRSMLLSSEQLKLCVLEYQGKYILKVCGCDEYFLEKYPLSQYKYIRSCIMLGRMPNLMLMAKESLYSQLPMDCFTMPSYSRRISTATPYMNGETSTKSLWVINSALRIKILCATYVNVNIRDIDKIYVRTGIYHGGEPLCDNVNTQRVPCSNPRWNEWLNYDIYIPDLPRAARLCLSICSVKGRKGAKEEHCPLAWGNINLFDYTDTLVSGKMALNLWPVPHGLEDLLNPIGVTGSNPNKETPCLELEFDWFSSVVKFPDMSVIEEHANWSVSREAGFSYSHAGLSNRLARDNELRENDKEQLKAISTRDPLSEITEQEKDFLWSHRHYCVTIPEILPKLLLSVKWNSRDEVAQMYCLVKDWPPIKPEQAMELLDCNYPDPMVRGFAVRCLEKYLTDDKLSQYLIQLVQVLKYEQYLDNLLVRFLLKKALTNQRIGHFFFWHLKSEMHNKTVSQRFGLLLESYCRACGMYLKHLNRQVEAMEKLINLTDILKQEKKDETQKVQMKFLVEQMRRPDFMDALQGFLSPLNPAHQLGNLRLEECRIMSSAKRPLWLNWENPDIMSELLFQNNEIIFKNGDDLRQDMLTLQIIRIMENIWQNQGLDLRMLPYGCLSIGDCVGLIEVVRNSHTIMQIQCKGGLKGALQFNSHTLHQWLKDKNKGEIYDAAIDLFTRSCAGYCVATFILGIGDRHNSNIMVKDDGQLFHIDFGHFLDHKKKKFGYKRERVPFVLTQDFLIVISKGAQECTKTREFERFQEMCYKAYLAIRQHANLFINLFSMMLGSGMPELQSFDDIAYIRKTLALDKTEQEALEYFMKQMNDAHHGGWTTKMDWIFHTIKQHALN
# Chain of UniProt P78368 (whole entry, looked up): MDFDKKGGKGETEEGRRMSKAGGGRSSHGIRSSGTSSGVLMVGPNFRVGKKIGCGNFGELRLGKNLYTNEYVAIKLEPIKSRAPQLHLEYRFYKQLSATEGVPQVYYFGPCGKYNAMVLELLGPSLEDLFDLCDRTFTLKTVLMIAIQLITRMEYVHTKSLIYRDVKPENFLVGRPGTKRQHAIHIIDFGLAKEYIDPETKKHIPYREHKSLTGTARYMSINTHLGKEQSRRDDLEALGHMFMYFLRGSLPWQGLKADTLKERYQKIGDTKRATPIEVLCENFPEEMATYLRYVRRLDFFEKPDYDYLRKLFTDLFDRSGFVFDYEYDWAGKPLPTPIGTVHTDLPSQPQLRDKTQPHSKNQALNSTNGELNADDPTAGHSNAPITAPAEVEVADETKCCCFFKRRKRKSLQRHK

# Series 1
# Compound: c1ccc(Oc2ccc(Nc3c4c(nc5ccccc35)CCC4)cc2)cc1
# Organism: Leishmania donovani
# Effect on: parasite killing
# Strain: DD8
test system,conditions,inhibition
intracellular amastigotes,"80 µM, 72 h",100%
promastigotes,"3.33 µM, 24 h",53% and 51% and 43%
intracellular amastigotes,"8 µM, 72 h",100%
intracellular amastigotes,"0.02 µM, 72 h",8% and 4%

# Series 2
# Target: Cyclin-dependent kinase 9, with cyclin T1 (CDK9, Homo sapiens, UniProt P50750)
# Chain of UniProt P50750 (whole entry, looked up): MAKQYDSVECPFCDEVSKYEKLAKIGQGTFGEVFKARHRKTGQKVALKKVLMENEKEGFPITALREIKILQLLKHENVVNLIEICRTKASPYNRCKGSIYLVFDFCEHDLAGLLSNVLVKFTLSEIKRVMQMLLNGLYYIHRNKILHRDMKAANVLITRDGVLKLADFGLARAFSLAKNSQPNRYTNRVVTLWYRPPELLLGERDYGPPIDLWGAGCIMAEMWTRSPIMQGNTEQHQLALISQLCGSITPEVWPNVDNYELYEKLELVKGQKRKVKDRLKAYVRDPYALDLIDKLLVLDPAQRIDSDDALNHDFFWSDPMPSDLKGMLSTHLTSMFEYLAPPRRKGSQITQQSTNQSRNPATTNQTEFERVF
# Effect on: enzyme activity
# Action: inhibitor
# Tested at: 0.5 µM
# Reference: control
Compound,remaining activity [%]
Cc1cccc(-c2[nH]c(C(C)(C)C)nc2-c2ccc3c(c2)OCO3)n1,88.5
Cn1c2ccccc2c2c3c(c4c5ccccc5n(CCC#N)c4c21)CNC3=O,46.8
CNC(=O)c1cc(Oc2ccc(NC(=O)Nc3ccc(Cl)c(C(F)(F)F)c3)cc2)ccn1,98.3
O=S(=O)(c1cccc2cnccc12)N1CCCNCC1,80.7
COc1ccc(OC)c2c(=S)c3ccccc3[nH]c12,98.8
Cn1sc(=O)n(Cc2ccccc2)c1=O,94.2
O=c1c2ccccc2[nH]c(=S)n1CCN1CCC(=C(c2ccc(F)cc2)c2ccc(F)cc2)CC1,102
O=C(Nc1cccc(Nc2cc(Nc3cccc(C(F)(F)F)c3)ncn2)c1)C1CC1,97.2
NCCNc1ncc(C(N)=O)c(Nc2cccc(C(F)(F)F)c2)n1,82
OCC(O)CCON=C1C(c2c(O)[nH]c3ccccc23)=Nc2ccccc21 (stereo not drawn),52.5
Oc1ccc(-c2nc(-c3ccncc3)c(-c3ccc(F)cc3)[nH]2)cc1,83.4
Nc1ccc2ncnc(NCCc3ccc(Oc4ccccc4)cc3)c2c1,101
COc1ccc(C(=O)Nc2sc3c(c2C(N)=O)CCCC3)cc1OC,102

# Series 3
# Host: mouse
# Medium: microsomes or S9
# Tested at: 2 µM
# Time: 0.5 h
Structure (SMILES),remaining compound
COC(=O)CC(c1cc(Cl)c2c(c1)OCO2)c1c(O)cc(C)[nH]c1=O (stereo not drawn),0%
Cc1ccc2cc(CNc3ccc4c(c3)C(=O)NC4)ccc2n1,23.6%
Cc1c(C(=O)NC2CCN(Cc3ccc(OCCCN(C)C)cc3)CC2)cnn1-c1ccccc1,> 100%
CCOCCOC1CCN(S(=O)(=O)c2cn(C)cn2)CC1,> 99%
COCCOC(=O)c1c(C)[nH]c(C(=O)N2CCOc3ccc(S(C)(=O)=O)cc32)c1C,81.2%
CCCC1(C)NC(=O)N(CC(=O)N(CC(C)C)CC(C)C)C1=O (stereo not drawn),8.22%
Cc1cc2nc(NC(=O)N3CCN(c4cc(C(C)(C)C)cc(C(C)(C)C)c4)CC3)sc2cc1C,28.2%
CC(=O)c1cc(-c2nccn2CCn2[nH]c(=O)ccc2=O)cs1,93.7%

# Series 4
# Structure (SMILES): O=C1NC(c2ccccn2)Sc2ccccc21 (stereo not drawn)
# Effect on: cell-free assay
# Technique: competition with immobilised ligand
# Tested at: 1 µM
target,remaining binding [%]
"Casein kinase I isoform gamma-2 (CSNK1G2, Homo sapiens, UniProt P78368)",88
"Focal adhesion kinase 1 (PTK2, Homo sapiens, UniProt Q05397)",79
"Mitogen-activated protein kinase kinase kinase 7 (MAP3K7, Homo sapiens, UniProt O43318)",99
"cAMP-dependent protein kinase catalytic subunit beta (PRKACB, Homo sapiens, UniProt P22694)",97
"Phosphatidylinositol 4,5-bisphosphate 3-kinase catalytic subunit alpha isoform (PIK3CA, Homo sapiens, UniProt P42336, E545K)",73
"Cyclin-dependent kinase 7 (CDK7, Homo sapiens, UniProt P50613)",77
"Death-associated protein kinase 2 (DAPK2, Homo sapiens, UniProt Q9UIK4)",79
"Receptor-type tyrosine-protein kinase FLT3 (FLT3, Homo sapiens, UniProt P36888, R834Q)",81

# For quick reference, copied from above (series 2):
Compound,remaining activity [%]
Cc1cccc(-c2[nH]c(C(C)(C)C)nc2-c2ccc3c(c2)OCO3)n1,88.5
Cn1c2ccccc2c2c3c(c4c5ccccc5n(CCC#N)c4c21)CNC3=O,46.8
CNC(=O)c1cc(Oc2ccc(NC(=O)Nc3ccc(Cl)c(C(F)(F)F)c3)cc2)ccn1,98.3
O=S(=O)(c1cccc2cnccc12)N1CCCNCC1,80.7
COc1ccc(OC)c2c(=S)c3ccccc3[nH]c12,98.8
